Measurements of several laboratories.
Compare with care: the assays were run in different laboratories. Numbers after ± are the reported error.
USP20 ZnF-UBD domain: Ubiquitin carboxyl-terminal hydrolase 20, ZnF-UBD domain (USP20, Homo sapiens, UniProt Q9Y2K6)
Chain of UniProt Q9Y2K6 (whole entry, looked up): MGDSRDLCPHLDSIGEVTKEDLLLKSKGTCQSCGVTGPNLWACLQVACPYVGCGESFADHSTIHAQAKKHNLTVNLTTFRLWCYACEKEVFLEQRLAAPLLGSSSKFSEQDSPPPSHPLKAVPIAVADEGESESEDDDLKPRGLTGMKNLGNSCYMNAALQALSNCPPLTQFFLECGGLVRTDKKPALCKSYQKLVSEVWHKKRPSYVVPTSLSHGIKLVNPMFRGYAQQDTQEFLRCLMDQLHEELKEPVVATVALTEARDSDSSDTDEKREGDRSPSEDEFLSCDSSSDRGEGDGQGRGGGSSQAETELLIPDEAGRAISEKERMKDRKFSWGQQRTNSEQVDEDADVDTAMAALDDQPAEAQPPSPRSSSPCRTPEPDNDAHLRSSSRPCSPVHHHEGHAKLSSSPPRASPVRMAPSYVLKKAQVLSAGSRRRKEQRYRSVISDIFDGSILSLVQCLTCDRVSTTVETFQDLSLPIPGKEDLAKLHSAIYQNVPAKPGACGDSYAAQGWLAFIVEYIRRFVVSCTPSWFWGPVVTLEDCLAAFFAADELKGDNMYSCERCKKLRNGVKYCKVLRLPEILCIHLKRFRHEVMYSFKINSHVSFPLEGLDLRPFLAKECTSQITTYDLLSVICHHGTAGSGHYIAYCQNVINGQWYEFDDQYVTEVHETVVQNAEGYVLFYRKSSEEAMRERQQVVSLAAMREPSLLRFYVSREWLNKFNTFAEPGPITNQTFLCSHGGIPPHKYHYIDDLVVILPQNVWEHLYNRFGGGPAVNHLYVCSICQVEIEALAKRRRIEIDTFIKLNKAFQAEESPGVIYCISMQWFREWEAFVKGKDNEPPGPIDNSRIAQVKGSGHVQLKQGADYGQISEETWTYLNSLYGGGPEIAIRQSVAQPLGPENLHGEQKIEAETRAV
FLT1: Vascular endothelial growth factor receptor 1 (FLT1, Homo sapiens, UniProt P17948)
Chain of UniProt P17948 (whole entry, looked up): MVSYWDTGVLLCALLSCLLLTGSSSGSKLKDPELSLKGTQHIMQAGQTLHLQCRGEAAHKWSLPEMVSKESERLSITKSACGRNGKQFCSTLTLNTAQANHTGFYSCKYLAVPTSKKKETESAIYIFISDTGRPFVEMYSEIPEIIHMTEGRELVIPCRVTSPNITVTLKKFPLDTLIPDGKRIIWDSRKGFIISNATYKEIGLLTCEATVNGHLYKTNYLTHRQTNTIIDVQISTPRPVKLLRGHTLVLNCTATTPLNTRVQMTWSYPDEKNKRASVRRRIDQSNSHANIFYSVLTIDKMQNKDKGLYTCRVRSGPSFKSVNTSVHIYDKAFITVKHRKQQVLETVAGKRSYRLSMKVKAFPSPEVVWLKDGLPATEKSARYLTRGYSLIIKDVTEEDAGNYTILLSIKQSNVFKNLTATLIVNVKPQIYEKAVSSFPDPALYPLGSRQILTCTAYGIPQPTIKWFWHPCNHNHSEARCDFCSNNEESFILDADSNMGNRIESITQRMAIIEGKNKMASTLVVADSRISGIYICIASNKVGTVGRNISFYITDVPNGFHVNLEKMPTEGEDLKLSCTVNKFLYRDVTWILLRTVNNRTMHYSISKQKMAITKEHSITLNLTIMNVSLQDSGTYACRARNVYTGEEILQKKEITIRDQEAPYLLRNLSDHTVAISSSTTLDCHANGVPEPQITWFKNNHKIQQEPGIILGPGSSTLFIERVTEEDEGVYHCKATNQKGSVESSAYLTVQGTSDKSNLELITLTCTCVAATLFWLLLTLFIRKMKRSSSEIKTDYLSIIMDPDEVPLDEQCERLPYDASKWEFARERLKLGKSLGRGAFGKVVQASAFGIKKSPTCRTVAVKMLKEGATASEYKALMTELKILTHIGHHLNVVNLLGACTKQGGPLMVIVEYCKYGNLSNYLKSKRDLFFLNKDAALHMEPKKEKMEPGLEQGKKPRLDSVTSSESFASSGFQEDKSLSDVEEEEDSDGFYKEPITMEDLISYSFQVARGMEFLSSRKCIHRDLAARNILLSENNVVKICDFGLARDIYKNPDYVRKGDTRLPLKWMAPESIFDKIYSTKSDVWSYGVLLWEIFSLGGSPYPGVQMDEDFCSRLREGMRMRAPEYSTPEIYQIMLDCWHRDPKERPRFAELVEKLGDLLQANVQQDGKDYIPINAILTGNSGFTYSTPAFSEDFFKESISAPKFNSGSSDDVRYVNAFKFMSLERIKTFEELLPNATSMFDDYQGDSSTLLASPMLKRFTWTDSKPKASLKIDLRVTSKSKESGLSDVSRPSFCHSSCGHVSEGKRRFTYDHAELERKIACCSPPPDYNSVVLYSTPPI
GSK3A: Glycogen synthase kinase-3 alpha (GSK3A, Homo sapiens, UniProt P49840)
Chain of UniProt P49840 (whole entry, looked up): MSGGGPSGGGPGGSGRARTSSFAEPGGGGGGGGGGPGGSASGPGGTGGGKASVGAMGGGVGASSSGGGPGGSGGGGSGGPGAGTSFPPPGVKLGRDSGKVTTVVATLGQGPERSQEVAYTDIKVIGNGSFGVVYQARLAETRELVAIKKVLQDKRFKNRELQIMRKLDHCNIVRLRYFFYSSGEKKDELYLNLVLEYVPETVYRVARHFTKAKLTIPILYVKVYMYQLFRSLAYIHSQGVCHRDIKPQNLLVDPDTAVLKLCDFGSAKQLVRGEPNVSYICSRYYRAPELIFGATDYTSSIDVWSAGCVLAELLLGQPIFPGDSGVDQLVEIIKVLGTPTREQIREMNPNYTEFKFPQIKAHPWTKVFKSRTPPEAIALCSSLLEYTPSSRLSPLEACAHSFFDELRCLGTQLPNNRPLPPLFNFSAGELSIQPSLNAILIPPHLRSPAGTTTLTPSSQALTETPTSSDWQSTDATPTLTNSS
Chain of UniProt O75914 (whole entry, looked up): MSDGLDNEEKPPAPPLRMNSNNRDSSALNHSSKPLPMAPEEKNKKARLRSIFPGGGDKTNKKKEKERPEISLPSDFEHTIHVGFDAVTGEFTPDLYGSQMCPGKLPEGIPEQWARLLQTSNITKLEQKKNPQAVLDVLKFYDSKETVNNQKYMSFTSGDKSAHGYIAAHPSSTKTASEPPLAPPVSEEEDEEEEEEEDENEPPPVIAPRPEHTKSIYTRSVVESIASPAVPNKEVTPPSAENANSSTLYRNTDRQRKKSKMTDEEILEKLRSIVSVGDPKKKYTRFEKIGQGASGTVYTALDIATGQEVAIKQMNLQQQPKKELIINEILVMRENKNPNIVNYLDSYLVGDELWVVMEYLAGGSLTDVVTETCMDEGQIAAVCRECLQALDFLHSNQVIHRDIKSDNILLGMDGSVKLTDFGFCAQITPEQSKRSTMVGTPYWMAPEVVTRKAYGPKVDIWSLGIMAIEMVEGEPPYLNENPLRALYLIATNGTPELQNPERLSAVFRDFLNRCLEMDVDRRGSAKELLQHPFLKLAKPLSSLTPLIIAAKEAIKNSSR
Chain of UniProt P07333 (whole entry, looked up): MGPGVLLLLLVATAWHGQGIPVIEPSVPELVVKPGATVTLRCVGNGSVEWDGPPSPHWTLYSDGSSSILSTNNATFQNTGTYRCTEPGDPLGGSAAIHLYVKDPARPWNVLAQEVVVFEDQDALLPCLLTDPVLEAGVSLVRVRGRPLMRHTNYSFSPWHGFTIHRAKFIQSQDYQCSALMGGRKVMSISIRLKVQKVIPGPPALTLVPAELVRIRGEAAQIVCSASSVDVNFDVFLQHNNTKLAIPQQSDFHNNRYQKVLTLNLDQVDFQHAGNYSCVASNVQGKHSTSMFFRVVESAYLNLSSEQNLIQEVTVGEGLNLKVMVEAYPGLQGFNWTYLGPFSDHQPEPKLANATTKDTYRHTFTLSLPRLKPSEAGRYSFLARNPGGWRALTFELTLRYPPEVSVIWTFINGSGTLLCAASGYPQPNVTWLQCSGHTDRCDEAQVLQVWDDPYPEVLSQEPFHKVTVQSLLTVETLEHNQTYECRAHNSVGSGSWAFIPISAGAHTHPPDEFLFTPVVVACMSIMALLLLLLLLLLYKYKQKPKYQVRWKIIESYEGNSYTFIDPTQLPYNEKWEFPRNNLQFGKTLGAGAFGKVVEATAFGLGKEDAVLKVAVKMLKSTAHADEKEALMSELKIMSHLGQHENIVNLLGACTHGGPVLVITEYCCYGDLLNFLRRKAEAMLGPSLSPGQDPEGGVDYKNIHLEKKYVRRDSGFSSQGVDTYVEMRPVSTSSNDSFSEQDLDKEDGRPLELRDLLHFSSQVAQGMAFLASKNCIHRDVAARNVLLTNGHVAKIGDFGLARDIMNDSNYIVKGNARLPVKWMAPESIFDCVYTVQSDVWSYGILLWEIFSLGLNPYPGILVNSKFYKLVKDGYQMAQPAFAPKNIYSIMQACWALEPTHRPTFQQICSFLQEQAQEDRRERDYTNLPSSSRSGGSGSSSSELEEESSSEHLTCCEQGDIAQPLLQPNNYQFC
Chain of UniProt Q9Y345 (whole entry, looked up): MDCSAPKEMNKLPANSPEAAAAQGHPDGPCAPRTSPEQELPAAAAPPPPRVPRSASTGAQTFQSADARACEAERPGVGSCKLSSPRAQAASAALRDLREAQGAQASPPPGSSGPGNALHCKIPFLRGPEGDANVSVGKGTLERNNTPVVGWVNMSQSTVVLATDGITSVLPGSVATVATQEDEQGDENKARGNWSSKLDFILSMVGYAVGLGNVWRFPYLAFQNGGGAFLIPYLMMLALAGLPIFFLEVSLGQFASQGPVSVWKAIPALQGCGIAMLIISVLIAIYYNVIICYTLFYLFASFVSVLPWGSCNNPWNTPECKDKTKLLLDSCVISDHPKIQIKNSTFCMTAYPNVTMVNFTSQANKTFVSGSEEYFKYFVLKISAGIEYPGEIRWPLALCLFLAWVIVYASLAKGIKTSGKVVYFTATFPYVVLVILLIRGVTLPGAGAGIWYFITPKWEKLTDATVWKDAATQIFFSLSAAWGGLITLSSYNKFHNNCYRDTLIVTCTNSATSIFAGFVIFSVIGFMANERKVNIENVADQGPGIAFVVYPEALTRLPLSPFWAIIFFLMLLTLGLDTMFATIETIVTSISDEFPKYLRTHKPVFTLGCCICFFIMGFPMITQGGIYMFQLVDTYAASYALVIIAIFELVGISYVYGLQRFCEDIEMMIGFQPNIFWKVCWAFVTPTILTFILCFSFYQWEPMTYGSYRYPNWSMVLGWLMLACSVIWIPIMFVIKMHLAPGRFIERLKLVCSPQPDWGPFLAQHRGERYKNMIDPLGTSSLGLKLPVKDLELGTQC

The Kd of O=C(O)CNC(=O)c1ccc(C(=O)N2CCC(c3ccc(Cl)cc3)CC2)cn1 is reported as 430 µM (USP20 ZnF-UBD domain).
With O=C(NC1CCC1)c1ccc2nc(-c3cccc(NS(=O)(=O)NCCN4CCCCC4)c3)cn2c1 the remaining activity was 100% (PAK3 (Homo sapiens, UniProt O75914); enzyme activity; 10 µM).
For C=CC(=O)N1CCC[C@@H](n2nc(-c3ccc(Oc4ccccc4)cc3)c3c(N)ncnc32)C1, the remaining activity was 42% (FLT1; 1 µM).
The remaining activity of NC/C(=C\F)COc1cccc(Cn2c(=S)[nH]c(=O)c3[nH]cnc32)c1 is reported as 95.6% (Peroxidasin homolog (PXDN, Homo sapiens, UniProt Q92626); Amplex UltraRed; 1.25 µM, mean of replicates; reference: control).
With Nc1nc(NC2CCCCC2)sc1C(=O)c1ccccc1 the remaining activity was 96% (AMP-activated protein kinase; enzyme activity, inhibitor; 10 µM).
COc1cc(-c2cncc3c2CN(C)Cc2cc(N4CCNCC4)ccc2-3)cc(OC)c1OC gave a remaining activity of 105% (CSF1R (Homo sapiens, UniProt P07333); kinase activity; 1 µM, human enzyme, with: ATP 10 µM; reference: DMSO control).
For O=C(O)c1ccc(Nc2ncc3c(n2)-c2ccc(Cl)cc2C(c2c(F)cccc2F)=NC3)cc1, the remaining activity was 81% (human CLK3(h); kinase activity; 1 µM).
CNc1ncc2c(/C=C/C(=O)N3CCC(OC)CC3)nn(Cc3cccc(C(F)(F)F)c3)c2n1 has a remaining activity of 98% (DYRK1A (Homo sapiens, UniProt Q13627); kinase activity, inhibitor; 1 µM; reference: untreated control).
With CC[C@@H]1[C@H](F)C(=O)N[C@@H]1COc1nccc2cc(C(N)=O)c(OC)cc12 the inhibition was -6.7% (GSK3A; ATP-site probe binding, ActivX profiling; THP-1 cell lysate; 0.04 mM, Lys2 site).
CNCC(=O)O gave a remaining activity of 50.4% (Sodium- and chloride-dependent glycine transporter 2 (Homo sapiens, UniProt Q9Y345); glycine uptake, inhibitor, [3H]glycine uptake; 5000 µM, log concentration 5, with: [3H]glycine; reference: no inhibitor).
For Nc1ncc2c(n1)-c1c([nH]c3ccc(-c4ccc(F)cc4)cc13)CCC2, the remaining activity was 97% (TTBK1 (Homo sapiens, UniProt Q5TCY1); kinase activity, inhibitor, radiometric; 1 µM, with: ATP at Km).
For COc1cc(Nc2ncc3c(n2)-c2ccc(Cl)cc2C(c2c(F)cccc2OC)=NC3)ccc1C(=O)O, the remaining activity was 100% (IGF1R; kinase activity; 1 µM).
With Cc1cc(Nc2cc(N3CCN(C)CC3)nc(Sc3ccc(NC(=O)C4CC4)cc3)n2)[nH]n1 the remaining activity was 98% (GSK3A; kinase activity, KinaseProfiler; 0.03 µM, species human; reference: control).
Cc1cnc(NC2CCOCC2)nc1-n1cnc(C(=O)NC(CN)c2cc(F)cc(Cl)c2)c1 (stereo not drawn) has a remaining activity of 100% (PI3K p110alpha/p65alpha (mouse); enzyme activity, inhibitor, radiometric kinase; 1 µM).
For COc1cc(F)ccc1-c1ncnc(Nc2cccc(C[S@](C)(=N)=O)c2)n1, the remaining activity was 67% (FLT1; kinase activity; 10 µM, with: 10 µM ATP).
C=CC(=O)N1CCC([C@@H]2CCNc3c(C(N)=O)c(-c4ccc(Oc5ccccc5)cc4)nn32)CC1 has a remaining activity of 67 ± 0.4% (YES1 (Homo sapiens, UniProt P07947); kinase activity, inhibitor, HotSpot radiometric; 100 nM, with: ATP 10 µM).
With O=C(O)CNC(=O)c1ccc(S(=O)(=O)N2CCC(n3c(=O)oc4ccccc43)CC2)cc1 the Kd was over 1000 µM (USP20 ZnF-UBD domain).
For COc1cc(N2CCN(C)CC2)ccc1Nc1nc(N)n(C(=O)NCc2c(Cl)cccc2Cl)n1, the remaining activity was 0.65% (KIT (Homo sapiens, UniProt P10721, L576P); enzyme activity; 10 µM; reference: control).

Excerpt of the above:
For O=C(O)c1ccc(Nc2ncc3c(n2)-c2ccc(Cl)cc2C(c2c(F)cccc2F)=NC3)cc1, the remaining activity was 81% (human CLK3(h); kinase activity; 1 µM).
CNc1ncc2c(/C=C/C(=O)N3CCC(OC)CC3)nn(Cc3cccc(C(F)(F)F)c3)c2n1 has a remaining activity of 98% (DYRK1A (Homo sapiens, UniProt Q13627); kinase activity, inhibitor; 1 µM; reference: untreated control).
